Results collected from several papers.
Every numbered part comes from another study and shows a few of its results, in no order.

Series 1 — technique: protein-binding microarray; molecule type: double-stranded DNA, one strand shown; matrix: in vitro; concentration: 0.8 µM; setting: whole 60-bp probe, no competitor; direction: higher = stronger binding; constant ends, left off below: … GTCTTGATTCGCTTGACGCTGCTG
Target: Centromere-binding protein 1, full length, N-terminal tag (CBF1, Saccharomyces cerevisiae, UniProt P17106, residues 1-351)
UniProt P17106, sequence (whole entry, looked up): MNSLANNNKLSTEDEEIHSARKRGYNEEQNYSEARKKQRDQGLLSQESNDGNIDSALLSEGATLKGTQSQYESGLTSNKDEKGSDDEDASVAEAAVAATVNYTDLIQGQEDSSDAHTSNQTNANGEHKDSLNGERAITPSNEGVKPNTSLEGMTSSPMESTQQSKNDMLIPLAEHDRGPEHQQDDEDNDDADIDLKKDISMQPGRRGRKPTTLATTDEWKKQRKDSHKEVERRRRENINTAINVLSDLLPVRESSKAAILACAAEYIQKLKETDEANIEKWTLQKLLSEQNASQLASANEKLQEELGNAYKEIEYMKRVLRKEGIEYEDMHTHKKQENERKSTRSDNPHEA
| Strand | fluorescence intensity |
| --- | --- |
| CTAAACTCATCTGTTCTCGTGTGCGCCTGTGTGTTC | 562 a.u. |
| GAAAGGAAAACTCATGTGAGTGTGACGTTACCGTAG | 596 a.u. |
| GAATGGGTGTGGTGTGGTGTGGGTGTGGGTGTGTAG | 545 a.u. |
| GAACCATAGTAACACCACGCAAGGTAACTGTCCTAG | 517 a.u. |
| CCTAACTACTATAATCACATGACATAGCTTCGTACA | 4620 a.u. |

Series 2 — technique: RNA Bind-n-Seq; molecule type: RNA; matrix: in vitro; concentration: 200 nM; setting: whole 134-nt RNA, ends assumed; added: 150 mM KCl; relative to: input library; direction: higher = stronger binding
Target: Ras GTPase-activating protein-binding protein 1, full length (G3BP1, Homo sapiens, UniProt Q13283)
UniProt Q13283, sequence (whole entry, looked up): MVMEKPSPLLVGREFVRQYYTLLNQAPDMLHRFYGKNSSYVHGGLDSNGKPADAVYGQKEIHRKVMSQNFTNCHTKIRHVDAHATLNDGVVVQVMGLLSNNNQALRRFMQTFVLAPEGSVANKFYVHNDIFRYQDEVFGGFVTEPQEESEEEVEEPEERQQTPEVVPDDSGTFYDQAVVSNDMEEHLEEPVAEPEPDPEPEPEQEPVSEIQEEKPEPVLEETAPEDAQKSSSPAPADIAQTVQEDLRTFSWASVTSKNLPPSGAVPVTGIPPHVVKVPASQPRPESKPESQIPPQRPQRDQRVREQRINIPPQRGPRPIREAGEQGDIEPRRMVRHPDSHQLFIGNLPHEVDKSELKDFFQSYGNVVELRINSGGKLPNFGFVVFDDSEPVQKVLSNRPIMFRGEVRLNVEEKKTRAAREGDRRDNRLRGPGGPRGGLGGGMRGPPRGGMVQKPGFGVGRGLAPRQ
Constant ends, left off below: GGGAGUUCUACAGUCCGACGAUC … UGGAAUUCUCGGGUGUCAAGG
| Strand | log2 enrichment |
| --- | --- |
| AGGACGUGCAGAACUUCCUCUCUGACUGCACGAUUCAUGAUGGGGCCGCAGGUGUCCAUUUCAUCUACACUAGAGAGGGCAGGCAGAGUG | 0.727 |
| UUCAAAGCGUUCGAAUGAGGAGACUGAUGACUAUGGGAAGGCGCAGGUAGCCAAAAGCAGCAGCAAGGAAUCCAGGUCAUCCAAGCUCCA | -1.79 |
| UGGGAGGUGGAUUUUGUUUAUUUUUUUAGCUCAUUUCCAGGGGUGGGAAUUUUUUUUUAAUCUGUGUCAUGAAUAAAGUUGUUUUUGAAA | 0.499 |
| ACCAUGCAGGUGCGCAUCUUUGGGAAGUGGGGCAAGGGGGGGAUAGGGAGGGGGGUAACACUUUGGGAACAGGUGGUCCCAGGUCGUUUC | 0.985 |
| ACCAUGCAGGUGGGCAUCUUUGGGAAGUGGGGCAAGGGGGGGAUAGGGAGGGGGGUAACACUUUGGGAACAGGUGAUCCCAGGUCGUUUC | 1.53 |

Series 3 — technique: protein-binding microarray; molecule type: double-stranded DNA, one strand shown; matrix: in vitro; concentration: 2200 nM top; setting: 60-bp whole probe; added: salmon DNA 0.4 mg/ml; relative to: random background probes; direction: higher = stronger binding; constant ends, left off below: GCCTAGCAC … GTCTTGATTCGCTTGACGCTGCTG
Target: Interferon regulatory factor 7, full length, phosphomimetic (IRF7, Homo sapiens, UniProt Q92985, residues 1-503, S471D/S472D/S475D/S476D/S477D/S483D/S484D/S487D)
Target sequence (chain): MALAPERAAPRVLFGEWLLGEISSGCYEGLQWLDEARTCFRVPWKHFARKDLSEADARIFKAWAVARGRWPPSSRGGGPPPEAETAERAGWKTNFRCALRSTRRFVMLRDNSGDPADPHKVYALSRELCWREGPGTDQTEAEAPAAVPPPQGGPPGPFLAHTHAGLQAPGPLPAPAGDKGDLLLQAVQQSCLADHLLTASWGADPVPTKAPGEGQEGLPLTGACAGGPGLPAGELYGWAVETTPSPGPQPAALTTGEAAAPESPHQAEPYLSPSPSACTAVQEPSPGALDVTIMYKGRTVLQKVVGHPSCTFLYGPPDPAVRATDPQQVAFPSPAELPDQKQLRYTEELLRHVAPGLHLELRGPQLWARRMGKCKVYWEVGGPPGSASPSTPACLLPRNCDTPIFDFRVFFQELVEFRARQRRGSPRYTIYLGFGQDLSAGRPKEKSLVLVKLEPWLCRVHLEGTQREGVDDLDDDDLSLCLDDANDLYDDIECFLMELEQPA
| Strand | fitted relative affinity |
| --- | --- |
| TTAGAACTGGGGTATCTATTAGTGCTA | 0.209 z-score |
| GACGGTTTCGACTTTCGAGACGTGCTA | 7.96 z-score |
| TACGGTTTCGGGACTGGGGACGTGCTA | 4.04 z-score |
| TTAGTTATCGGACTGGGTTAGTGCTAG | 0.574 z-score |
| CTCGTTTACATTTTCCAAATGTGCTAG | 3.66 z-score |
| GACGTACTGCTTATCCTGACGTGCTAG | 1.06 z-score |
| GACGGTTTCCGTTCCCTGACGTGCTAG | 5.61 z-score |

Further values, each from its own experiment
| Substance | target | test | test system | setting | scale | endpoint | value |
| --- | --- | --- | --- | --- | --- | --- | --- |
| PhoQ, residues 284 288 289 292 302 303 SLANKL | PhoP, residues 12 14 15 18 19 SGWQI (Escherichia coli, UniProt P23836) | Sort-seq, item: YFP reporter | E. coli | PhoQ-PhoP variant library, added: 10 µM Mg2+ | relative to: high Mg2+ state, higher = stronger signaling | fold induction | 0.91 |

Excerpt of the above (series 3):
| Strand | fitted relative affinity |
| --- | --- |
| TTAGTTATCGGACTGGGTTAGTGCTAG | 0.574 z-score |
| GACGTACTGCTTATCCTGACGTGCTAG | 1.06 z-score |
